# Measured values from different studies.
# Each line is one published result; not all experiments were run side by side. Several values in a cell are separate wells, animals, samples, runs or records. ± marks the error that the study gave.
Compound,test,test system,setting,how to read,endpoint,value
Oc1ccc(/C=C/c2cc(O)cc(O)c2)cc1,,"male Wistar rats, plasma","oral, 10 mg/kg",,CL/F,79.3 ± 17.3 mL/min/kg
C#Cc1cccc(Nc2ncnc3cc(OCCOC)c(OCCOC)cc23)c1,UPLC-MS/MS,"Wistar rat, male, plasma","oral, four weeks, with: CA 175 mg/kg, low dose",baseline: control,CL/F decrease,11%
C=CC(=O)N1CCC(Oc2cc3c(Nc4ccc(Cl)c(Cl)c4F)ncnc3cc2OC)CC1,,"male Sprague-Dawley rats, plasma","oral, 2 mg/kg, with: schisandrin A pretreatment 20 mg/kg daily 1 week",,CL/F,5 ± 0.667 mL/min/kg
C=CC(=O)N1CCC([C@@H]2CCNc3c(C(N)=O)c(-c4ccc(Oc5ccccc5)cc4)nn32)CC1,,"Sprague-Dawley rats, plasma","oral, 16 mg/kg, with: posaconazole 40 mg/kg",,CL/F,96.3 ± 25.8 mL/min/kg
O=C(Nc1ccc(OC(F)(F)Cl)cc1)c1cnc(N2CC[C@@H](O)C2)c(-c2ccn[nH]2)c1,,"Sprague-Dawley rat, male, plasma","oral, 8 mg/kg",,CL/F,71.8 ± 14.8 mL/min/kg
CC(=O)CC(c1ccccc1)c1c(O)c2ccccc2oc1=O (centres unmarked),,"Sprague-Dawley rat, male, plasma","oral, 0.3 mg/kg/day, 1 week, without PNS",,CL/F,0.129 ± 0.00883 mL/min/kg
CC[C@@H]([C@H](C)O)n1ncn(-c2ccc(N3CCN(c4ccc(OC[C@@H]5CO[C@@](Cn6cncn6)(c6ccc(F)cc6F)C5)cc4)CC3)cc2)c1=O,,"Sprague-Dawley rats, plasma","oral, 40 mg/kg, with: zanubrutinib 16 mg/kg",,CL/F,13 ± 6.33 mL/min/kg
C1=C/COCc2cc(ccc2OCCN2CCCC2)Nc2nccc(n2)-c2cccc(c2)COC/1,LC-MS/MS,"Sprague-Dawley rat, male, plasma","oral, 36 mg/kg, with: voriconazole 30 mg/kg oral",,CL/F,11200 ± 5880 mL/h
CCc1c(-c2ccccc2)c(-c2ccccc2)nn1-c1ccccc1-c1cccc(OCC(=O)O)c1,,Sprague-Dawley rat,"oral, dose not given",,CL/F observed,28.6 mL/min/kg and 33.7 mL/min/kg
O=C1c2ccccc2C(=O)N1CCCN1CCN(C(c2ccc(F)cc2)c2ccc(F)cc2)CC1,,"male Sprague-Dawley rat, whole blood","oral, 10 mg/kg",,CL/F,2650 ± 1440 mL/min/kg
Nc1ccn([C@@H]2O[C@H](CO)[C@@H](O)C2(F)F)c(=O)n1,,"Sprague-Dawley rat, male, plasma","intravenous, 5 mg/kg",,CL/F,1.09 ± 0.17 (mg/kg)/(µg/mL)/h

# A few entries again:
Compound,test,test system,setting,how to read,endpoint,value
Oc1ccc(/C=C/c2cc(O)cc(O)c2)cc1,,"male Wistar rats, plasma","oral, 10 mg/kg",,CL/F,79.3 ± 17.3 mL/min/kg
